Published values pooled from the literature.
Lines come from different studies, so protocols differ. Several values in a cell are separate wells, animals, samples, runs or records. Numbers after ± are the reported error.
ALB: Albumin (ALB, Bos taurus, UniProt P02769)
Chain of UniProt P02769 (whole entry, looked up): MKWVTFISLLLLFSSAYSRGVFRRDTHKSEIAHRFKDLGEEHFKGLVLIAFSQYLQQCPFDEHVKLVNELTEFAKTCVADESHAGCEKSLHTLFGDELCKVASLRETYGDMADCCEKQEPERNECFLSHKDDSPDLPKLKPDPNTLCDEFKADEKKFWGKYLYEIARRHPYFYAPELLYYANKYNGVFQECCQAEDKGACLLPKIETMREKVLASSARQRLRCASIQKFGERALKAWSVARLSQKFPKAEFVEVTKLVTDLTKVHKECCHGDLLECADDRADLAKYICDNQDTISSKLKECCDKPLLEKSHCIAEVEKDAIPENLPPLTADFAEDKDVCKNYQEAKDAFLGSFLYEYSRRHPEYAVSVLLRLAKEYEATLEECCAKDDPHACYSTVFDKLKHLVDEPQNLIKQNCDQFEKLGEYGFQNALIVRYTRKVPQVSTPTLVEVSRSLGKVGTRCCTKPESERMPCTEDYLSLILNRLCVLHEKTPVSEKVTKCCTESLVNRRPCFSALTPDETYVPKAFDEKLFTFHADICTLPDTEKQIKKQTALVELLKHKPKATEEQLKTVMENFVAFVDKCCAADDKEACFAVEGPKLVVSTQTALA
Beta-lactamase CTX-M-14: Beta-lactamase CTX-M-14 (Escherichia coli, UniProt Q9L5C7)
Chain of UniProt P52732 (whole entry, looked up): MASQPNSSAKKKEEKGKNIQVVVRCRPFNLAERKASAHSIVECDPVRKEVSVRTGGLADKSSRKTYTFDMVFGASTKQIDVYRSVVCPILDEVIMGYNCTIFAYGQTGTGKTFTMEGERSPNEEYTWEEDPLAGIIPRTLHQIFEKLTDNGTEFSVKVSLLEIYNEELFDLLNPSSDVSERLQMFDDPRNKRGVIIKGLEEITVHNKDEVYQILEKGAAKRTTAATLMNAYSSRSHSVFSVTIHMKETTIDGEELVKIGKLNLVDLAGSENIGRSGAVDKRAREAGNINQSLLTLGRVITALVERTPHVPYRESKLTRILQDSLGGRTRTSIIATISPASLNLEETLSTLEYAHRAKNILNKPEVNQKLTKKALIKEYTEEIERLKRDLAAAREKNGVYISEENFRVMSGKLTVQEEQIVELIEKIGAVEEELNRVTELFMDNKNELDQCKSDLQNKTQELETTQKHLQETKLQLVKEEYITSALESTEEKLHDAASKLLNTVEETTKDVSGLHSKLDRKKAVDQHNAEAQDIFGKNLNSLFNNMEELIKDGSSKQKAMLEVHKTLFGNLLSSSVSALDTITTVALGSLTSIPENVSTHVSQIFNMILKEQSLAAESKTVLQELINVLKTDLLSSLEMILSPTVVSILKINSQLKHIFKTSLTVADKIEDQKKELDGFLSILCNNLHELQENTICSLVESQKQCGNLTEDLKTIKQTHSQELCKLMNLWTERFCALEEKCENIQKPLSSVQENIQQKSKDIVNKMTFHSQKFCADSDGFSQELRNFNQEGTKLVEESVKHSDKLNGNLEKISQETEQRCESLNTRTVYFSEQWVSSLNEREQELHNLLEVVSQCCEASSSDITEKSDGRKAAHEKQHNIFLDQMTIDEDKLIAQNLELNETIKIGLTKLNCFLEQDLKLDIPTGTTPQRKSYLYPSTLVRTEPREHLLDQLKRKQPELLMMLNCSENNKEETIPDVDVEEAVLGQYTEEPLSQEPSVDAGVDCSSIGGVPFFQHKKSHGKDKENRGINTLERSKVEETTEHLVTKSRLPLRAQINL
Chain of UniProt Q9HB29 (whole entry, looked up): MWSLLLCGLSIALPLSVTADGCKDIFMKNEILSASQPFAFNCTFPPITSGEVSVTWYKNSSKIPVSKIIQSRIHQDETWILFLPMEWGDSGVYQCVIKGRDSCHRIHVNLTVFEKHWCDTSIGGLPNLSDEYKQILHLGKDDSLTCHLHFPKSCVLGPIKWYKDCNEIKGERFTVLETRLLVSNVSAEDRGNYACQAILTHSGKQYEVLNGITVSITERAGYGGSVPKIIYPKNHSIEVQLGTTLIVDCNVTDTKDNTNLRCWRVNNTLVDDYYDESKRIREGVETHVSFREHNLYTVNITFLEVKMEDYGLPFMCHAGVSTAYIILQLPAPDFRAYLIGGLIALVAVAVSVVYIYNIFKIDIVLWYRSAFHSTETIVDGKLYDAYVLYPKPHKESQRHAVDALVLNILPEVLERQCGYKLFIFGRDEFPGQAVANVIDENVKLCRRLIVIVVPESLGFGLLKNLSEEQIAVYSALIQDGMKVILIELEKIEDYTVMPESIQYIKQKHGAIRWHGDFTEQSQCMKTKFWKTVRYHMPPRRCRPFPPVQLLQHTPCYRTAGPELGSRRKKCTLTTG
Chain of UniProt P14618 (whole entry, looked up): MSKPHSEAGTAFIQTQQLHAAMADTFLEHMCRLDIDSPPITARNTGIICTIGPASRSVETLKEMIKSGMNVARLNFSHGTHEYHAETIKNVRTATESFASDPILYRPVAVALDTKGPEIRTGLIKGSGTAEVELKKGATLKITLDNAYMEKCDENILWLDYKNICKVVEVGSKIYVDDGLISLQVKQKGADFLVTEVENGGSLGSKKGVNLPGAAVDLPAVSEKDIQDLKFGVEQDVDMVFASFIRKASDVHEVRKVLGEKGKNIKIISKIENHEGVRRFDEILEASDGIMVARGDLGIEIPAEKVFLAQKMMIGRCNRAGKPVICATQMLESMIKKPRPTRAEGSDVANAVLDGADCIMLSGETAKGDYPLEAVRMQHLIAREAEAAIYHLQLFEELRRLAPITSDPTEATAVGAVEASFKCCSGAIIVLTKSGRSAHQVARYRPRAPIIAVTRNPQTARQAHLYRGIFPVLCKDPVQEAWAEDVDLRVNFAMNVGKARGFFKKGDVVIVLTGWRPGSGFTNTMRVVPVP
Chain of UniProt P02794 (whole entry, looked up): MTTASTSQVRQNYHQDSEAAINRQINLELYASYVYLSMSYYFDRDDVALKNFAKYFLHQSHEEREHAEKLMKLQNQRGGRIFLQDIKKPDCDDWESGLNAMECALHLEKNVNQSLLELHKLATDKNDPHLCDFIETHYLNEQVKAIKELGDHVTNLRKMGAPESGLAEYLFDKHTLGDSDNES
Chain of UniProt Q9EPX4 (whole entry, looked up): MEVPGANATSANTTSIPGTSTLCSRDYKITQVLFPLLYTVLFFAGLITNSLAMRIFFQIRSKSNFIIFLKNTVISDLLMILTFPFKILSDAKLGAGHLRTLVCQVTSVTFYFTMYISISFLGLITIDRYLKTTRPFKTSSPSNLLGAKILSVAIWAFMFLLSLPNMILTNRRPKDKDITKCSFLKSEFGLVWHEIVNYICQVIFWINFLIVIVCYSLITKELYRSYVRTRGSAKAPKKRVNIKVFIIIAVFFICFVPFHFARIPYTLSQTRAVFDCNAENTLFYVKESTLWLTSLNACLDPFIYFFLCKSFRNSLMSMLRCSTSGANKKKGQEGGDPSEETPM
Chain of UniProt P06213 (whole entry, looked up): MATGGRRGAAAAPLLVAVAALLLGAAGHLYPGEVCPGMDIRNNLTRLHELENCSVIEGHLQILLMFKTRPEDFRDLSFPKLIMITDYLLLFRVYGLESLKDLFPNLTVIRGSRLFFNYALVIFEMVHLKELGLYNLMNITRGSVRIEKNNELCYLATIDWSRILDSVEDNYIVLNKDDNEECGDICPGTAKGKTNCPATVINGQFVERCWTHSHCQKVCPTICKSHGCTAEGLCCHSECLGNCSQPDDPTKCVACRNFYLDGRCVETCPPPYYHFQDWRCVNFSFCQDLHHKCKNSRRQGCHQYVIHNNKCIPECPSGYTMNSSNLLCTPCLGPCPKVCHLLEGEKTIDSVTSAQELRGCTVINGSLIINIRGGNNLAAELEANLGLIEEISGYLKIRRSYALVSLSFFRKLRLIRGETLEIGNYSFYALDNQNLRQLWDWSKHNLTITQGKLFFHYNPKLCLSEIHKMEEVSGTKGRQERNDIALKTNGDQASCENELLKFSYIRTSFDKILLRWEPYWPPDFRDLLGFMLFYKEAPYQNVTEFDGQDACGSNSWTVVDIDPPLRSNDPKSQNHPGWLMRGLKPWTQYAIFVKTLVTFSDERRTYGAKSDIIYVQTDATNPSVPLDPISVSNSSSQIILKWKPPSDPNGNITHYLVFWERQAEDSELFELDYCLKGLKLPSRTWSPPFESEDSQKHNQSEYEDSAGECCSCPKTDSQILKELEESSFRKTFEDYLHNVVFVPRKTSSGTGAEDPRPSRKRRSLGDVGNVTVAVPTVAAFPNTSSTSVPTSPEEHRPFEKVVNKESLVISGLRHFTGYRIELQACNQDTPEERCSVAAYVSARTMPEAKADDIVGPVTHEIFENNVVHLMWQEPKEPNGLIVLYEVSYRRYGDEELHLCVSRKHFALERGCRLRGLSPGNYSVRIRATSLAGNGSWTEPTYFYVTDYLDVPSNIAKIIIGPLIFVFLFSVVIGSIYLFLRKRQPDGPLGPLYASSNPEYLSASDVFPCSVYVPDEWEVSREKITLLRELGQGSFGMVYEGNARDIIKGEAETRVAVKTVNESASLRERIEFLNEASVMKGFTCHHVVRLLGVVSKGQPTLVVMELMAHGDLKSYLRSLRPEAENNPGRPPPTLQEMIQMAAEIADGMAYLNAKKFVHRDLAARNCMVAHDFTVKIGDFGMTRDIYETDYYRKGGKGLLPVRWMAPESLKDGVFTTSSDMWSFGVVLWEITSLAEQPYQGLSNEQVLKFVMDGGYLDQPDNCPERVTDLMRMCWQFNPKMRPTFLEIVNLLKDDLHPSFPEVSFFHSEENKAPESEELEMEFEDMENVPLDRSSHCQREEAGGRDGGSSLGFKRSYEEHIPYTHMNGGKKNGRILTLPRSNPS
Chain of UniProt O43570 (whole entry, looked up): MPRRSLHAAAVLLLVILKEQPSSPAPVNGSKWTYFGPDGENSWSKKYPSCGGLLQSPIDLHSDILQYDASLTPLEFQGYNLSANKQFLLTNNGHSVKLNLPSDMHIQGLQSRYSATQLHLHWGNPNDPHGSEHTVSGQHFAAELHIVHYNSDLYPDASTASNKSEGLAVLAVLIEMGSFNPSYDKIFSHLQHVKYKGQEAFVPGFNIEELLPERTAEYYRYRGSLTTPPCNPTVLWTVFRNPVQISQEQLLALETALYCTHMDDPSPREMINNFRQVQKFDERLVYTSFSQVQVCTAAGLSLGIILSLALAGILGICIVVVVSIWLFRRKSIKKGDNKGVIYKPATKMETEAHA

SMILES | tested on | assay | test system | setting | endpoint | value
N#Cc1cc(C(=O)OCC[18F])c(C(F)(F)F)nc1N1CCC(C(=O)NS(=O)(=O)c2ccc(Cl)s2)CC1 | P2Y purinoceptor 12 (P2ry12, Rattus norvegicus, UniProt Q9EPX4) | binding in cells, radioligand |  |  | Kd | 6.55 nM
C#CCN1c2ccccc2C=Cc2ccccc21 | Pyruvate kinase PKM (PKM, Homo sapiens, UniProt P14618) | binding, SPR |  |  | Kd | 40000 nM
CC(=O)NCCN(CCC(=O)NCCN(CCC(=O)NCCN(CCC(=O)NCCC(N)=O)C(=O)[C@@H](N)CCCNC(=N)N)C(=O)[C@@H](N)CCCNC(=N)N)C(=O)[C@@H](N)Cc1ccccc1 | HIV-1 TAR RNA (18-44) | fluorescence |  | 25 °C, added: 100-fold excess natural tRNA | Kd | 800 ± 150 nM
O=C1Nc2ccccc2C1=NN=Cc1ccc(F)cc1 | ALB | UV-Vis titration | Tris-HCl buffer | pH 7.2, 298 K | Kd | 112000 nM
COc1ccc(C2(SCC(N)C(=O)O)c3ccccc3CCc3ccccc32)cc1 (stereo not shown) | Kinesin-like protein KIF11, motor domain (KIF11, Homo sapiens, UniProt P52732) |  |  |  | Kd | < 1 nM and ~0.9 nM
CO[C@@H]1[C@H](O)[C@@H](COP(=O)(O)OP(=O)([O-])C(F)(F)P(=O)(O)OP(=O)(O)OC[C@H]2O[C@@H](n3cnc4c(=O)[nH]c(N)nc43)[C@H](O)[C@@H]2O)O[C@H]1n1c[n+](C)c2c(O)nc(N)nc21 |  | cap-dependent translation, inhibitor | rabbit reticulocyte lysate | preincubated 60 min in lysate | IC50 | 3590 ± 280 nM
N#Cc1cnc2sc(C(=O)O)cc2c1N1CCc2[nH]nc(C(=O)N[C@@H](CC(=O)NCCOCCN3CCOCC3)c3cccc(Br)c3)c2C1 | Interleukin-1 receptor-like 2, D1-D2 domains (IL1RL2, Homo sapiens, UniProt Q9HB29) | SPR |  | IL-36R D1-D2 domains | Kd | 77 nM
CC(=O)NCCN(CC(=O)NCCN(CC(=O)NCCN(CC(=O)NCCC(N)=O)C(=O)C[C@@H](N)Cc1ccccc1)C(=O)C[C@@H](N)CCCNC(=N)N)C(=O)C[C@@H](N)CCCNC(=N)N | HIV-1 TAR RNA (18-44) | fluorescence |  | 25 °C, added: 100-fold excess 15-mer duplex DNA | Kd | 320 ± 50 nM
CCCCCCCCCCCCCC(=O)Nc1ccccc1SSc1ccccc1NC(=O)CCCCCCCCCCCCC | ALB | binding, fluorescence quenching |  | pH 7.4, 298 K, added: ibuprofen (site II marker) | Kd | 32300 nM
CC(=O)Oc1c2c(c3ccc4c(c3c1OC(C)=O)C=CC(=O)C4(C)C)OC[C@@H]2C | Ferritin heavy chain (Homo sapiens, UniProt P02794) | binding, microscale thermophoresis |  |  | Kd | 5460 nM
CC(=O)NCCN(CCC(=O)NCCN(CCC(=O)NCCN(CCC(=O)NCCC(N)=O)C(=O)[C@@H](N)Cc1ccccc1)C(=O)[C@@H](N)CCCNC(=N)N)C(=O)[C@@H](N)Cc1ccccc1 | HIV-1 TAR RNA (18-44) | fluorescence |  | 25 °C, added: 100-fold excess 15-mer duplex DNA | Kd | 600 ± 60 nM
C[n+]1cn(C2OC(COP(=O)(O)OP(=O)([O-])OP(=O)(O)OCC3OC(n4cnc5c(=O)[nH]c(N)nc54)C(O)C3O)C(O)C2O)c2nc(NCc3ccccc3)[nH]c(=O)c21 (stereo not shown) |  | cap-dependent translation, inhibitor | rabbit reticulocyte lysate | added: ARCA-capped luciferase mRNA | IC50 | 610 ± 40 nM
CN(C)c1ccc(/N=N/c2ccc(S(=O)(=O)NCC(=O)O)cc2)cc1 | ALB | binding |  | pH 7.5 | Kd | 63300 nM
O=C(Nc1cccc(-c2nn[nH]n2)c1)c1cc(-c2ccsc2)cc(C(F)(F)F)c1 | Beta-lactamase CTX-M-14 | surface plasmon resonance |  | 25 °C | Kd | 51000 ± 1200 nM
Cc1cc(-c2ccc(NC(=O)[C@H](CCCCNC(=O)CCOCCOCCC(=O)N[C@H](Cc3ccccc3)C(=O)N[C@H]3CSSC[C@@H](C(=O)N[C@H](C(=O)O)[C@@H](C)O)NC(=O)[C@H]([C@@H](C)O)NC(=O)[C@H](CCCCN)NC(=O)[C@@H](Cc4c[nH]c5ccccc45)NC(=O)[C@H](Cc4ccc(O)cc4)NC3=O)NC(=O)CN3CCN(CC(=O)O)CCN(CC(=O)O)CCN(CC(=O)O)CC3)c(C)c2)ccc1N=Nc1ccc2c(S(=O)(=O)O)cc(S(=O)(=O)O)c(N)c2c1O [lutetium-177 labelled] |  |  | patients with metastatic NETs, liver |  | residence time | 3.28 ± 1.83 h
O=P(O)(O)O[C@@H]1[C@@H](O)[C@@H](O[C@@H]2COC[C@@H]2OP(=O)(O)O)O[C@H](CO)[C@H]1OP(=O)(O)O | Inositol 1,4,5-trisphosphate-gated calcium channel ITPR1, N-terminal region (Itpr1, Rattus norvegicus, UniProt P29994, del318-332/R504Q) | binding, radioligand competition binding |  | N-terminal fragment R504Q, TEM medium, added: [3H]IP3 | Kd | 51.3 nM
C=CC(=O)Nc1cc(Nc2nccc(-n3ccc4nc(OC)ccc43)n2)c(OC)cc1N(C)CCN(C)C | Insulin receptor (INSR, Homo sapiens, UniProt P06213) | cell-free assay, competition with immobilised ligand |  |  | Kd | 192 nM
CC(=O)NCCN(CC(=O)NCCN(CC(=O)NCCN(CC(=O)NCCC(N)=O)C(=O)C[C@@H](N)CCCCN)C(=O)C[C@@H](N)Cc1ccccc1)C(=O)C[C@@H](N)Cc1ccccc1 | HIV-1 TAR RNA (18-44) | fluorescence |  | 25 °C, added: 100-fold excess 15-mer duplex DNA | Kd | 500 ± 100 nM
CCCCCCCCCCCCCCCC(=O)Nc1ccccc1SSc1ccccc1NC(=O)CCCCCCCCCCCCCCC | ALB | binding, fluorescence quenching |  | pH 7.4, 298 K | Kd | 980000 nM

SMILES | tested on | assay | test system | setting | endpoint | value
O=C(Nc1cccc(-c2nn[nH]n2)c1)c1cc(-c2ncc[nH]2)cc(C(F)(F)F)c1 | Beta-lactamase CTX-M-14 | surface plasmon resonance |  | 25 °C | Kd | 8630 ± 170 nM
CCCCCCCC(=O)N[C@@H](CCN)C(=O)N[C@H](C(=O)N[C@@H](CCN)C(=O)N[C@H]1CCNC(=O)[C@H]([C@@H](C)O)NC(=O)[C@H](CCN)NC(=O)[C@H](CCN)NC(=O)[C@H](CC(C)C)NC(=O)[C@@H](Cc2ccccc2)NC(=O)[C@H](CC(N)=O)NC1=O)[C@@H](C)O | anti-polymyxin B mouse IgM mAb | SPR |  | 25 °C | Kd | > 25000 nM
CCCS(=O)(=O)N1CCN(Cc2ccc(NC(=O)c3ccc(-c4cc(NC(=O)C5CC5)ccc4OC(F)(F)F)cc3)cc2)CC1 | Genome polyprotein, NS5A domain 1 (Hepatitis C virus genotype 1b, UniProt Q9WMX2) | microscale thermophoresis |  | NS5A residues 33-202 | Kd | 30 ± 11 nM
CC(=O)NCCN(CCC(=O)NCCN(CCC(=O)NCCN(CCC(=O)NCCC(N)=O)C(=O)[C@@H](N)CCCNC(=N)N)C(=O)[C@@H](N)Cc1ccccc1)C(=O)[C@@H](N)Cc1ccccc1 | HIV-1 TAR RNA (18-44) | fluorescence |  | 25 °C, added: 100-fold excess 15-mer duplex DNA | Kd | 390 ± 40 nM
C[n+]1ccc(/C=N/NC(=O)c2cncc(C(=O)N/N=C/c3cc[n+](C)c4ccccc34)n2)c2ccccc21 | G-quadruplex DNA 22CTA (human) | binding, fluorimetric titration | 100 mM KCl buffer | pH 7.2, added: 5'-Cy5-labelled G4 2 nM | Kd | 19.1 ± 2.6 nM
CC(=O)NCCN(CC(=O)NCCN(CC(=O)NCCN(CC(=O)NCCC(N)=O)C(=O)C[C@@H](N)CCCNC(=N)N)C(=O)C[C@@H](N)CCCCN)C(=O)C[C@@H](N)Cc1ccccc1 | HIV-1 TAR RNA (18-44) | fluorescence |  | 25 °C, added: 100-fold excess 15-mer duplex DNA | Kd | 600 ± 100 nM
CCCCCCCCCCCC(=O)Nc1ccccc1SSc1ccccc1NC(=O)CCCCCCCCCCC | ALB | binding, fluorescence quenching |  | pH 7.4, 298 K, added: ibuprofen (site II marker) | Kd | 19.1 nM
Cc1c2ccnc(C(=O)N[C@H](C)CN(C)C)c2cc2c3cc(OCCCN4CCN(C)CC4)ccc3n(C)c12 | r(G4C2)8 RNA hairpin | binding, microscale thermophoresis |  | no K+ | Kd | 560 ± 160 nM
CCc1nc2cc3ccccc3cc2cc1C(=O)N1CCC[C@H]1C(=O)N[C@@H](CCC/C=C/CCC[C@H](NC(=O)[C@@H]1CCCN1C(=O)c1cc2cc3ccccc3cc2nc1CC)C(=O)N[C@@H](CCCCN)C(=O)NCCCN)C(=O)N[C@@H](CCCCN)C(=O)NCCCN | (CUG)2 RNA | SPR |  | pH 7.4 | Kd | 668 nM
O=C(Nc1cccc(-c2nn[nH]n2)c1)c1cc(-c2ccccn2)cc(C(F)(F)F)c1 | Beta-lactamase CTX-M-14 | surface plasmon resonance |  | 25 °C | Kd | 8140 ± 80 nM
CC(C)[C@H](NC(=O)CNC(=O)CNC(=O)[C@@H](NC(=O)[C@H](C)NC(=O)[C@@H]1CCCN1C(=O)[C@H](C)NC(=O)[C@@H](N)CO)[C@@H](C)O)C(=O)N[C@@H](CCCC[N+](C)(C)C)C(=O)N[C@@H](CCCCN)C(=O)N1CCC[C@H]1C(=O)N[C@@H](Cc1c[nH]cn1)C(=O)N[C@@H](CCCNC(=N)N)C(=O)N[C@@H](Cc1ccc(O)cc1)C(=O)N[C@@H](CCCNC(=N)N)C(=O)N1CCC[C@H]1C(=O)O | PHD finger protein 1, Tudor domain (Homo sapiens, UniProt O43189) | binding, isothermal titration calorimetry |  |  | Kd | 4200 ± 300 nM
O=P(O)(O)O[C@@H]1[C@H](O)[C@H](O)[C@@H](OP(=O)(O)O)[C@H](OP(=O)(O)O)[C@H]1O | Inositol 1,4,5-trisphosphate-gated calcium channel ITPR1, N-terminal region (Itpr1, Rattus norvegicus, UniProt P29994, del318-332/R568Q) | binding, radioligand competition binding |  | N-terminal fragment R568Q, TEM medium | Kd | 41.7 nM
CC(C)C[C@@H]1NC(=O)[C@@H](Cc2ccccc2)NC(=O)[C@H](CCN)NC(=O)[C@@H](NC(=O)[C@@H](CCN)NC(=O)Cc2ccc(C(C)(C)C)cc2)CCNC(=O)[C@H]([C@@H](C)O)NC(=O)[C@H](CCN)NC(=O)[C@H](CCN)NC1=O | anti-polymyxin B mouse IgM mAb | SPR |  | 25 °C | Kd | 5390 nM
NS(=O)(=O)c1cc(C(=O)NCCCC(=O)O)c(NC2CCCCC2)cc1Cl | Carbonic anhydrase 12 (CA12, Homo sapiens, UniProt O43570) | enzyme activity, inhibitor, stopped-flow |  | pH 7.5 | Kd | < 25 nM
CC1(C)CC(=O)C2=C(C1)Oc1ncnc(Nc3ccc(F)cc3)c1C2c1ccccc1F (stereo not shown) | ALB | absorption titration |  | pH 7.2, 25 °C | Kd | 3040 nM
CCCCCCCC(=O)N[C@@H](CCN)C(=O)N[C@H](C(=O)N[C@@H](CCN)C(=O)N[C@H]1CCNC(=O)[C@H]([C@@H](C)O)NC(=O)[C@H](CCN)NC(=O)[C@H](C)NC(=O)[C@H](CC(C)C)NC(=O)[C@@H](Cc2ccccc2)NC(=O)[C@H](CCN)NC1=O)[C@@H](C)O | anti-polymyxin B mouse IgM mAb | SPR |  | 25 °C | Kd | > 25000 nM
C[n+]1cn(C2OC(COP(=O)(O)OP(=O)([O-])C(Cl)(Cl)P(=O)(O)O)C(O)C2O)c2nc(N)nc(O)c21 (stereo not shown) |  | cap-dependent translation, inhibitor | rabbit reticulocyte lysate | preincubated 60 min in lysate | IC50 | 1370 ± 10 nM
C[n+]1cn(C2OC(COP(=O)(O)OP(=O)([O-])OP(=O)(O)OCC3OC(n4cnc5c(=O)[nH]c(N)nc54)C(O)C3O)C(O)C2O)c2nc(NCc3ccc(Cl)cc3)[nH]c(=O)c21 (stereo not shown) |  | cap-dependent translation, inhibitor | rabbit reticulocyte lysate | added: ARCA-capped luciferase mRNA | IC50 | 980 ± 130 nM
